Experimental data of several laboratories.
Lines come from different studies, so protocols differ. Numbers after ± are the reported error.

CS(=O)(=O)Nc1ccc(-c2cncc(-c3cccc4[nH]ccc34)c2)cc1  EC50 (Severe acute respiratory syndrome coronavirus 2; viral replication, inhibitor, luciferase; Calu-3): 0.6 µM
CCCCCCCCCCCCCCCC(=O)N[C@@H](CCC(=O)NCCOCCOCCC(=O)NCCOCCOCCC(=O)NCCCC[C@H](NC(=O)[C@H](CC(=O)O)NC(=O)[C@H](CC(C)C)NC(=O)[C@H](Cc1ccc(O)cc1)NC(=O)[C@H](CCCCN)NC(=O)[C@H](CO)NC(=O)[C@H](Cc1ccc(O)cc1)NC(=O)[C@H](CC(=O)O)NC(=O)[C@H](CO)NC(=O)[C@@H](NC(=O)[C@H](Cc1ccccc1)NC(=O)[C@@H](NC(=O)CNC(=O)[C@H](CCC(N)=O)NC(=O)[C@@H](CO)NC(=O)[C@@H](N)Cc1c[nH]cn1)[C@@H](C)O)[C@@H](C)O)C(=O)N[C@@H](CCCNC(=N)N)C(=O)N[C@@H](CCCNC(=N)N)C(=O)N[C@@H](C)C(=O)N[C@@H](CCC(N)=O)C(=O)N[C@@H](CC(=O)O)C(=O)N[C@@H](Cc1ccccc1)C(=O)N[C@H](C(=O)N[C@@H](CCC(N)=O)C(=O)N[C@@H](Cc1c[nH]c2ccccc12)C(=O)N[C@@H](CC(C)C)C(=O)N[C@@H](CC(C)C)C(=O)N[C@@H](CC(N)=O)C(=O)N[C@H](C(=O)NCC(=O)NCC(=O)N1CCC[C@H]1C(=O)N[C@@H](CO)C(=O)N[C@@H](CO)C(=O)NCC(=O)N[C@@H](C)C(=O)N1CCC[C@H]1C(=O)N1CCC[C@H]1C(=O)N1CCC[C@H]1C(=O)N[C@@H](CO)C(N)=O)[C@@H](C)O)C(C)C)C(=O)O  AUC(0-t) (rhesus monkey, male, plasma; subcutaneous, 300 µg/kg, day 28, toxicokinetics, mean): 2890 ng·h/mL
CC(C)=CCc1c(O)ccc(C(=O)C2C(c3c(O)cc(O)c4c(=O)c(CC=C(C)C)c(-c5ccc(O)cc5O)oc34)C=C(C)CC2c2ccc(O)cc2O)c1O (stereo not shown)  EC50 (Severe acute respiratory syndrome coronavirus 2; antiviral activity; Huh-7; 96 h): > 100 µM
O=C(CCN(Cc1ccco1)C(=O)c1csc(Nc2ccccc2)n1)NCc1cccc(C(F)(F)F)c1  EC50 (Severe acute respiratory syndrome coronavirus 2; viral replication, inhibitor; A549-ACE2): 12.4 µM
C[C@H](c1cccc2ccccc12)N1CCC(C(=O)NCc2cc(F)cc(NC(=O)N3CCN(C)CC3)c2)CC1  EC50 (Severe acute respiratory syndrome coronavirus 2; viral replication; hACE2-HeLa; 48 h): 0.88 µM
CC(C)[C@H](NC(=O)OCc1ccccc1)C(=O)N[C@@H](Cc1ccccc1)C(=O)N[C@H](C=O)C[C@@H]1CCNC1=O  EC50 (Severe acute respiratory syndrome coronavirus 2; viral replication, plaque reduction; Vero E6, USA-WA1/2020; 3 days): > 5 µM
CC(C)C[C@H](NC(=O)OCc1ccccc1)C(=O)N[C@@H](C[C@@H]1CCNC1=O)C(O)S(=O)(=O)O (stereo partly shown)  EC50 (Severe acute respiratory syndrome coronavirus 2; viral replication, inhibitor; Vero C1008; 72 h): 4.48 µM
O=C[C@H](C[C@@H]1CCNC1=O)NC(=O)[C@H](Cc1ccccc1)NC(=O)/C=C/c1ccc(Cl)cc1F  EC50 (Severe acute respiratory syndrome coronavirus 2; viral replication, plaque reduction; Vero E6, USA-WA1/2020; 3 days): > 5 µM
OC[C@H]1O[C@@H](Oc2cc3c(O)cc(O)cc3[o+]c2-c2ccc(O)c(O)c2)[C@H](O)[C@@H](O)[C@@H]1O  EC50 (Severe acute respiratory syndrome coronavirus 2; antiviral activity; Huh-7; 96 h): > 100 µM
O=C[C@H](C[C@@H]1CCNC1=O)NC(=O)[C@H](Cc1ccccc1)NC(=O)OCc1ccccc1  EC50 (Severe acute respiratory syndrome coronavirus 2; viral replication, plaque reduction; Vero E6, USA-WA1/2020; 3 days): > 5 µM
Cc1c(C(=O)N2c3ccccc3NC(=O)C2CC(=O)Nc2ccc(Cl)c(Cl)c2)oc2ccccc12 (stereo not shown)  EC50 (Severe acute respiratory syndrome coronavirus 2; viral replication, inhibitor; A549-ACE2): 4.7 µM
CC(C)C[C@H](NC(=O)[C@@H](NC(=O)OCc1ccccc1)[C@@H](C)OC(C)(C)C)C(=O)N[C@H](C=O)C[C@@H]1CCNC1=O  EC50 (Severe acute respiratory syndrome coronavirus 2; viral replication, plaque reduction; Vero E6, USA-WA1/2020; 3 days): 0.21 ± 0.02 µM
NC(Cc1cc(O)c(O)cc1O)C(=O)O (racemic)  EC50 (Severe acute respiratory syndrome coronavirus 2; antiviral activity; Huh-7; 96 h): > 100 µM

Some of these lines once more:
CC(C)C[C@H](NC(=O)OCc1ccccc1)C(=O)N[C@@H](C[C@@H]1CCNC1=O)C(O)S(=O)(=O)O (stereo partly shown)  EC50 (Severe acute respiratory syndrome coronavirus 2; viral replication, inhibitor; Vero C1008; 72 h): 4.48 µM
NC(Cc1cc(O)c(O)cc1O)C(=O)O (racemic)  EC50 (Severe acute respiratory syndrome coronavirus 2; antiviral activity; Huh-7; 96 h): > 100 µM
